Experimental data of several laboratories.
A part holds a random share of what one study measured.

Set 1 — read-out: enzyme activity; action: inhibitor; tested at: 10 µM
Target: Calcium/calmodulin-dependent protein kinase type II subunit alpha (CAMK2A, Homo sapiens, UniProt Q9UQM7)
The inhibition of C=C1[C@H]2CC[C@@H]3[C@H]2C(C)(C)CCC[C@]13C is reported as -29%.
CCCCCCCCC/C=C/C(=O)CCc1ccc(O)c(OC)c1 gave an inhibition of -30%.
The inhibition of COc1cc2c(cc1OC)[C@H]1C[C@@H](OC(=O)[C@@H](N)C(C)C)[C@H](CC(C)C)CN1CC2 is reported as -5%.
CC1=Nc2ccc(Cl)cc2S(=O)(=O)N1 has an inhibition of -11%.
For C=C1C[C@@]23CC[C@H]4[C@@](C)(CCC[C@@]4(C)C(=O)O[C@@H]4O[C@H](CO)[C@@H](O)[C@H](O)[C@H]4O)[C@@H]2CC[C@]1(O[C@@H]1O[C@H](C)[C@@H](O)[C@H](O)[C@@H]1O[C@@H]1O[C@H](CO)[C@@H](O)[C@H](O[C@@H]2O[C@H](CO)[C@@H](O)[C@H](O)[C@H]2O)[C@H]1O)C3, the inhibition was -40%.
For O=C1NCC2(CCN(CCc3ccccc3)CC2)O1, the inhibition was -3%.
With CCN(CC)CCOc1ccc(C(=C(Cl)c2ccccc2)c2ccccc2)cc1 the inhibition was 7%.
The inhibition of O[C@H]1[C@H](O)[C@@H](O)[C@H](O)[C@@H](O)[C@H]1O is reported as 3%.
With NC(=O)[C@@H](N)Cc1c[nH]c2ccccc12 the inhibition was 2%.
CCCC[C@H](NC(=O)[C@@H]1[C@@H]2[C@H](CN1C(=O)[C@@H](NC(=O)NC1(CS(=O)(=O)C(C)(C)C)CCCCC1)C(C)(C)C)C2(C)C)C(=O)C(=O)NC1CC1 gave an inhibition of -10%.
CCCCC/C=C/C=C/C=O has an inhibition of 2%.

Set 2 — read-out: enzyme activity; action: inhibitor; tested at: 0.5 µM; reference: control
Target: Tyrosine-protein kinase JAK2 (JAK2, Homo sapiens, UniProt O60674)
With COc1cc2ncnc(Nc3ccc(Oc4ccccc4)cc3)c2cc1OC the remaining activity was 95.6%.
Nc1[nH]nc2nc3ccccc3nc12 has a remaining activity of 105%.
Nc1ncnc2n[nH]c(Nc3ccc(F)cc3)c12 has a remaining activity of 105%.
COc1ccc(OC)c2c(=S)c3ccccc3[nH]c12 gave a remaining activity of 96%.
The remaining activity of O=C1NC(=O)C(c2cn(CCCO)c3ncccc23)=C1c1cnccn1 is reported as 97.8%.
With CCOC(=O)c1c(C)[nH]c(/C=C2\C(=O)Nc3ccccc32)c1C the remaining activity was 96.7%.
For Nc1ccc2ncnc(NCCc3ccc(Oc4ccccc4)cc3)c2c1, the remaining activity was 103%.
For O=C1NC(=O)C(c2cn(CCCn3ccnc3)c3ccccc23)=C1Nc1ccccc1, the remaining activity was 84.3%.
N#CC(C#N)=C(N)/C(C#N)=C/c1ccc(O)cc1 has a remaining activity of 102%.
C#Cc1cccc(Nc2ncnc3cc(OCCOC)c(OCCOC)cc23)c1 gave a remaining activity of 99.1%.
For CN(C)c1ccc(C=C2C(=O)Nc3ccccc32)cc1, the remaining activity was 94.8%.
With Cc1nc(-c2ccccc2)c(-c2ccncc2)o1 the remaining activity was 98.4%.
O=S(=O)(c1cccc2cnccc12)N1CCCNCC1 has a remaining activity of 107%.
OCC(O)CCON=C1C(c2c(O)[nH]c3ccccc23)=Nc2ccccc21 (centres unmarked) has a remaining activity of 43.1%.
For Cn1c2ccccc2c2c3c(c4c5ccccc5n(CCC#N)c4c21)CNC3=O, the remaining activity was 5.58%.

Set 3 — Structure (SMILES): O=C(Nc1ccccc1)Nc1cccc(Oc2ccc3nccn3n2)c1; method: competitive binding panel; tested at: 1 µM; reference: vehicle
For Leucine-rich repeat serine/threonine-protein kinase 2 (LRRK2, Homo sapiens, UniProt Q5S007, G2019S): remaining binding read 39%.
It gave 55% for remaining binding (Dual specificity tyrosine-phosphorylation-regulated kinase 1B (DYRK1B, Homo sapiens, UniProt Q9Y463)).
For Phosphatidylinositol 4,5-bisphosphate 3-kinase catalytic subunit alpha isoform (PIK3CA, Homo sapiens, UniProt P42336, H1047L): remaining binding read 100%.
The remaining binding was 100% (Serine/threonine-protein kinase WNK3 (WNK3, Homo sapiens, UniProt Q9BYP7)).
For Serine/threonine-protein kinase 32A (STK32A, Homo sapiens, UniProt Q8WU08); item: YANK1: remaining binding read 100%.
The remaining binding was 90% (Death-associated protein kinase 1 (DAPK1, Homo sapiens, UniProt P53355)).
Serine/threonine-protein kinase MAK (MAK, Homo sapiens, UniProt P20794) — remaining binding: 73%.
For Homeodomain-interacting protein kinase 4 (HIPK4, Homo sapiens, UniProt Q8NE63): remaining binding read 91%.
For Casein kinase II subunit alpha' (CSNK2A2, Homo sapiens, UniProt P19784): remaining binding read 100%.

Other studies, line by line
C[C@@H](NC(=O)Nc1cc2[nH]ncc2c(CO)n1)c1ccccc1 has an IC50 of 280 to 850 nM (Mitogen-activated protein kinase 1 (MAPK1, Homo sapiens, UniProt P28482); target engagement in cells, BRET).
The inhibition of C[C@H](NC(=O)c1cnc2n1[C@](C)(Cc1ccc(C#N)cc1)C(=O)N2c1cc(Cl)c(F)c(Cl)c1)C(=O)NC1(c2ccccn2)CC1 is reported as 6.14% (5-hydroxytryptamine receptor 5A (HTR5A, Homo sapiens, UniProt P47898); binding, radioligand binding; 10 µM).
C[C@H](NC(=O)Nc1cc2[nH]ncc2c(CO)n1)c1ccccn1 has a remaining binding of 100% (Tyrosine-protein kinase ABL1, non-phosphorylated (ABL1, Homo sapiens, UniProt P00519, F317I); binding, competition with immobilised ligand; 1 µM).
